Results pooled from the literature.
Each numbered part is a random draw from the data of one study; scales do not carry over between parts. Several values in a cell are separate wells, animals, samples, runs or records.
Chain of UniProt P17948 (whole entry, looked up): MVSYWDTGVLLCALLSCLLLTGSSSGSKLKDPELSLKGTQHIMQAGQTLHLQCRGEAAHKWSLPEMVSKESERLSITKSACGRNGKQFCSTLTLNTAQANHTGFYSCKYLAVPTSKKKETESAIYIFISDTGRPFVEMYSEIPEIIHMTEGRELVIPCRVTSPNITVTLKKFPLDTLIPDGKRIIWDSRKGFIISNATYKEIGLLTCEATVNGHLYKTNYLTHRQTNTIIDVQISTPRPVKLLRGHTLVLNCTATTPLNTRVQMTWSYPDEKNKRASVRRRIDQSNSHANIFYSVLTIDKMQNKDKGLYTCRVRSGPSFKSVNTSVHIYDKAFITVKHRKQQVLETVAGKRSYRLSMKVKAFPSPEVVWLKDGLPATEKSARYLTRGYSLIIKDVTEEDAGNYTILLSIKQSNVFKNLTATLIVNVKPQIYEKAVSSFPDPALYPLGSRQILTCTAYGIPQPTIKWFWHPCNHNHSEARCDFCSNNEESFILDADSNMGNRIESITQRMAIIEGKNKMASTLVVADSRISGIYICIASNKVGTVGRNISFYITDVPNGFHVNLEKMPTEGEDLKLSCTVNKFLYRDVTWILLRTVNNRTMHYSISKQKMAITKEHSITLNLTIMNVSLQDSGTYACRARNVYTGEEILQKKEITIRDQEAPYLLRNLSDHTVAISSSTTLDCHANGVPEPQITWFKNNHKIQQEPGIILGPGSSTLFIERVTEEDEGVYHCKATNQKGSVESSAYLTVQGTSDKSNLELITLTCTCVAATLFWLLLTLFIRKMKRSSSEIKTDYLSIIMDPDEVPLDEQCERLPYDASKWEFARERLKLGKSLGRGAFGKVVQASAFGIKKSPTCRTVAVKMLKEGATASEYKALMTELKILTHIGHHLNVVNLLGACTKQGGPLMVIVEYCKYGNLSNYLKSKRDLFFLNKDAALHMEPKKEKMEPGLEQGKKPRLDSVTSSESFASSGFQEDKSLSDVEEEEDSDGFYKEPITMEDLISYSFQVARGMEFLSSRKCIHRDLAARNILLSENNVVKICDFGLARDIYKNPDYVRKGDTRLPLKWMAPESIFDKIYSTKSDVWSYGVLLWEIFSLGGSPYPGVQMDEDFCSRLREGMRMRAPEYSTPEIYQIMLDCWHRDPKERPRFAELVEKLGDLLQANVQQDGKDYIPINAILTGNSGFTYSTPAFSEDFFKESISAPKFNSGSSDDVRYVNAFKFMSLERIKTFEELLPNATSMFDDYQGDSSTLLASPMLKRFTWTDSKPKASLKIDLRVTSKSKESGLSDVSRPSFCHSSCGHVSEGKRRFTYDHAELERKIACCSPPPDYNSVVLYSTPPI
Chain of UniProt Q9HBY8 (whole entry, looked up): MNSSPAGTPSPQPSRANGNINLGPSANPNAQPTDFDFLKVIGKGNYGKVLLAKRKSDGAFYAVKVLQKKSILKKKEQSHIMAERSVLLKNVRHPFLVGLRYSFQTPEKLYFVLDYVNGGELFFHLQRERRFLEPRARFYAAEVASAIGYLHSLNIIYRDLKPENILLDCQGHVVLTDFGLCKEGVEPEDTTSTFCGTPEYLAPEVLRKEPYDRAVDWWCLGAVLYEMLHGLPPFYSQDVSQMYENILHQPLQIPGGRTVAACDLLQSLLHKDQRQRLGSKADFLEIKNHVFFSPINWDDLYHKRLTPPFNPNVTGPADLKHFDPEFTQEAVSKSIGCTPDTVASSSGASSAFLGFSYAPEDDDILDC
Chain of UniProt P42336 (whole entry, unmodified, looked up): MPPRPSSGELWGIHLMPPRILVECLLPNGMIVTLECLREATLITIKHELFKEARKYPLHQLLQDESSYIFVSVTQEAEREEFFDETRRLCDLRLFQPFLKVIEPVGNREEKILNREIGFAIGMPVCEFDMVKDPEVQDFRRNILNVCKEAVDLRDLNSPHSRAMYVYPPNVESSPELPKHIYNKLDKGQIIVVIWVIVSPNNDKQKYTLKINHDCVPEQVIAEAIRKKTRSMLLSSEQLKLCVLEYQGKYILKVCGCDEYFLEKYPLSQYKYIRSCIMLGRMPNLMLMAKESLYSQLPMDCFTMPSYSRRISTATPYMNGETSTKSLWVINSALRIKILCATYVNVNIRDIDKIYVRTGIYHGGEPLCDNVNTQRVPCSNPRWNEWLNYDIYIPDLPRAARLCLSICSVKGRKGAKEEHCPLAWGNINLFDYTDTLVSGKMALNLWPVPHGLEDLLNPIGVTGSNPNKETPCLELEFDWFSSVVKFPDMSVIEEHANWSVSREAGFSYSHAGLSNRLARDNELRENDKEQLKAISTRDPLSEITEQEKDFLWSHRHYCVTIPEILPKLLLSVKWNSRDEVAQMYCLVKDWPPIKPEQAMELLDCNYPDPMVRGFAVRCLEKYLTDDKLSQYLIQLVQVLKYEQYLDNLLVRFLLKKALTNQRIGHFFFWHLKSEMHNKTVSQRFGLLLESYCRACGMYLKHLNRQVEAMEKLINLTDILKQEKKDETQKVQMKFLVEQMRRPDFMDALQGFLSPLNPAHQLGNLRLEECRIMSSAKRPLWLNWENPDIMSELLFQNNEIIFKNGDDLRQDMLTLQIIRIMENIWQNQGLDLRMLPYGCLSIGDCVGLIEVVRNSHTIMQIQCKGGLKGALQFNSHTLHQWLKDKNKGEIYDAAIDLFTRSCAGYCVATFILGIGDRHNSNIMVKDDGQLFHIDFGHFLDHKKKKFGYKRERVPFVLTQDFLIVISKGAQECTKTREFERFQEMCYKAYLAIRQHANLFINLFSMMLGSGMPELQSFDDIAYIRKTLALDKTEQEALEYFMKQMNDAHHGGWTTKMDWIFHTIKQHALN
Chain of UniProt O95747 (whole entry, looked up): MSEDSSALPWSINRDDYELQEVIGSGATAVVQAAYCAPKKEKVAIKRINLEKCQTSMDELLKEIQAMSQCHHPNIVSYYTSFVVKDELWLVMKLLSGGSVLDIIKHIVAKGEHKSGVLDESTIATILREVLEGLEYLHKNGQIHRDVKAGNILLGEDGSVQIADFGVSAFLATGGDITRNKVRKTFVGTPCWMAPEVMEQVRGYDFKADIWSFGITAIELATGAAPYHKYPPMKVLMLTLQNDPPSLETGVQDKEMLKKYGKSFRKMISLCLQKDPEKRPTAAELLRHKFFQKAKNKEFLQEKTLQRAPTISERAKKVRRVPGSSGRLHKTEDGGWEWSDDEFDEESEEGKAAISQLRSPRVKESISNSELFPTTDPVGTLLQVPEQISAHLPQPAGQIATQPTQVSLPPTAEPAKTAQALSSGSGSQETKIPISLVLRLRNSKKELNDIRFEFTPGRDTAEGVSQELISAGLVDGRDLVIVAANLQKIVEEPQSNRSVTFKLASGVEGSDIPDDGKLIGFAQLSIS
Chain of UniProt Q9NRM7 (whole entry, looked up): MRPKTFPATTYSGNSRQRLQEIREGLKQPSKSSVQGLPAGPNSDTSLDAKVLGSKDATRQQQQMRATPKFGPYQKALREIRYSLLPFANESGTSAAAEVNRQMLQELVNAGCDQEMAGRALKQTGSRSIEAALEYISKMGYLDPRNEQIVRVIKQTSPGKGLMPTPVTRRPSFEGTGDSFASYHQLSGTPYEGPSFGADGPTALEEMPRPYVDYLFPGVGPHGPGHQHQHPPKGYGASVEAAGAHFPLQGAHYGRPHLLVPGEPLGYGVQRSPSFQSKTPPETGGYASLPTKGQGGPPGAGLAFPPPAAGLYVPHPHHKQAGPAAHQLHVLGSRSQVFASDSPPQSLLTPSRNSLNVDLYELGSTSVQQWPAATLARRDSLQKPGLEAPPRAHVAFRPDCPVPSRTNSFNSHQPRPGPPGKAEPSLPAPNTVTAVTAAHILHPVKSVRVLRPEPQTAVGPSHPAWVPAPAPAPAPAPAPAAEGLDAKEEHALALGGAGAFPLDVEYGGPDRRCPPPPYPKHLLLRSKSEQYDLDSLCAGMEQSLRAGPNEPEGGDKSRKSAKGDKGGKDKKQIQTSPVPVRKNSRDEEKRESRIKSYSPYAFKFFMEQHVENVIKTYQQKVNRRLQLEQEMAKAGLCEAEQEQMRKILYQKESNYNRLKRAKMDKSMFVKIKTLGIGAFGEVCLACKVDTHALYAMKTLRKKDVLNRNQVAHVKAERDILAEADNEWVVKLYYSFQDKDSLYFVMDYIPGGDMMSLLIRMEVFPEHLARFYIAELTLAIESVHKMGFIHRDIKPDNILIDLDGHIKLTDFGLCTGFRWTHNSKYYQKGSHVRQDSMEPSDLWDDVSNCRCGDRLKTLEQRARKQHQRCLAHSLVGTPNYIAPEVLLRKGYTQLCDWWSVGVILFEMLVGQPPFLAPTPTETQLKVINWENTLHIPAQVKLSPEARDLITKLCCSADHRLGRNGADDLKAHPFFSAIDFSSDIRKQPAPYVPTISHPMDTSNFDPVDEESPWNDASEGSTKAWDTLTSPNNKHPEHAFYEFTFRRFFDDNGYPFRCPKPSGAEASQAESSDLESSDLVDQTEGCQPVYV
Chain of UniProt Q14012 (whole entry, looked up): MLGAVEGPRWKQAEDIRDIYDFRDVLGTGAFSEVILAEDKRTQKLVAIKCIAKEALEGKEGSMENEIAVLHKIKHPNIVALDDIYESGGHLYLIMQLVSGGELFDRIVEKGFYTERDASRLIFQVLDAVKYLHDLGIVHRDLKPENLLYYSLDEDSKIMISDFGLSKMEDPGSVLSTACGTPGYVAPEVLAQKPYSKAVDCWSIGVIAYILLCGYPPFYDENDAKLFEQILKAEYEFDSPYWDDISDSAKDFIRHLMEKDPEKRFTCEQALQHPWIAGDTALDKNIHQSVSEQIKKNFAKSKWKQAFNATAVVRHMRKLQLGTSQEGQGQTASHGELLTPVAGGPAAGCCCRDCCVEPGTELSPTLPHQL
Chain of UniProt Q9UQB9 (whole entry, looked up): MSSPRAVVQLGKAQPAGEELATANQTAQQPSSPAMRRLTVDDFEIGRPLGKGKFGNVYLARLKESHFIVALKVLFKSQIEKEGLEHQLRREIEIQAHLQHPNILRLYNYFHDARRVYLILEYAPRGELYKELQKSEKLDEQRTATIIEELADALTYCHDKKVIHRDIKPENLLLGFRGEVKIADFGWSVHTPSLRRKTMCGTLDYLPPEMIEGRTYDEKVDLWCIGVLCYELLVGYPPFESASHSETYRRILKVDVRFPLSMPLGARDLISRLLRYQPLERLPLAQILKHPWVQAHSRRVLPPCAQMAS

Set 1 — cell line: mouse MPNST tumor cells; technique: high-content nuclear imaging; item: cell number; tested at: 10 µM; time: 12 h; setting: mean of 2 replicates; relative to: plate mean; direction: higher = more cells; endpoint: nuclei count
c1cnc(N2CCN(Cc3ccc4c(c3)OCO4)CC2)nc1: -0.138 z-score
CNC(=C[N+](=O)[O-])NCCSCc1csc(CN(C)C)n1: 0.557 z-score and 2.04 z-score
CC(C)NCC(O)c1ccc(O)c(O)c1 (stereo not shown): 0.681 z-score
CSc1ccc2c(c1)C(N1CCN(C)CC1)Cc1ccccc1S2 (stereo not shown): -5.01 z-score
CNC(=O)c1cc2c(cn1)[nH]c1ccccc12: 1.54 z-score
CCCc1nc(C)c2c(=O)nc(-c3cc(S(=O)(=O)N4CCN(CC)CC4)ccc3OCC)[nH]n12: -0.153 z-score

Set 2 — technique: competition with immobilised ligand; tested at: 1 µM; endpoint: remaining binding
SMILES: CCCOc1ccc([C@@H]2[C@@H](C(=O)O)[C@H](c3ccc4c(c3)OCO4)CN2CC(=O)Nc2c(CC)cccc2CC)cc1
ITK (Homo sapiens, UniProt Q08881); cell-free assay: 100%
LATS2 (Homo sapiens, UniProt Q9NRM7); cell-free assay: 100%
Aurora kinase C (AURKC, Homo sapiens, UniProt Q9UQB9); cell-free assay: 94%
STK38L (Homo sapiens, UniProt Q9Y2H1); cell-free assay: 100%
EPHB2 (Homo sapiens, UniProt P29323); cell-free assay: 100%
PIK3CA (Homo sapiens, UniProt P42336, H1047Y); cell-free assay: 100%
Myosin-IIIb (MYO3B, Homo sapiens, UniProt Q8WXR4); binding: 52%
PTK2 (Homo sapiens, UniProt Q05397); cell-free assay: 88%
MAP3K12 (Homo sapiens, UniProt Q12852); cell-free assay: 100%
RIOK2 (Homo sapiens, UniProt Q9BVS4); cell-free assay: 98%
OXSR1 (Homo sapiens, UniProt O95747); cell-free assay: 79%
Non-receptor tyrosine-protein kinase TYK2, JH2 (TYK2, Homo sapiens, UniProt P29597); cell-free assay: 81%
FLT3 (Homo sapiens, UniProt P36888, K663Q); cell-free assay: 100%
NEK10 (Homo sapiens, UniProt Q6ZWH5); cell-free assay: 96%

Set 3 — observed: enzyme activity; action: inhibitor; tested at: 0.5 µM; relative to: control; endpoint: remaining activity
Compound: CN(C)S(=O)(=O)c1ccc2c(c1)/C(=C/c1cc3c([nH]1)CCCC3)C(=O)N2
CAMK1 (Homo sapiens, UniProt Q14012): 107%
SGK2 (Homo sapiens, UniProt Q9HBY8): 101%
CLK2 (Homo sapiens, UniProt P49760): 32.1%
EPHA6 (Homo sapiens, UniProt Q9UF33): 61.9%
FLT1 (Homo sapiens, UniProt P17948): 84.9%
CAMKK1 (Homo sapiens, UniProt Q8N5S9): 65.4%
EPHA2 (Homo sapiens, UniProt P29317): 96.5%

Mixed results
O=C1CCC(N2Cc3cc(C4CCN(Cc5ccccc5)CC4)ccc3C2=O)C(=O)N1 (stereo not shown) — IC50 (Voltage-gated inwardly rectifying potassium channel KCNH2 (KCNH2, Homo sapiens, UniProt Q12809); potassium current, inhibitor, manual patch clamp; HEK293 stably transfected with hERG; nominal concentrations): 7.99 µM

Excerpt of the above (set 2):
PIK3CA (Homo sapiens, UniProt P42336, H1047Y); cell-free assay: 100%
MAP3K12 (Homo sapiens, UniProt Q12852); cell-free assay: 100%
